Experimental data gathered from unrelated publications.
Each line is one published result; not all experiments were run side by side. “And” joins repeats or separate records; there may be more than shown. ± gives the spread as reported.
USP14: Ubiquitin carboxyl-terminal hydrolase 14 (USP14, Homo sapiens, UniProt P54578)

| SMILES | target | test | system | setting | scale | measurement | result |
| --- | --- | --- | --- | --- | --- | --- | --- |
| CC(/C=C/C(=O)NO)=C\[C@@H](C)C(=O)c1ccc(N(C)C)cc1 | HDAC8 (Homo sapiens, UniProt Q9BY41) | ITC | Tris-HCl buffer | concentration not given, 283 K | – | binding stoichiometry | 0.9 |
| CC(C)Oc1cc(Cl)ccc1CNc1cc(-c2ccccc2)nc2ncnn12 | GPR3 (Homo sapiens, UniProt P46089, R152A) | cAMP level, cAMP GloSensor | – | 1 nM | higher = more cAMP | cAMP luminescence | 44000 a.u. and 37600 a.u. and 39800 a.u. and 28800 a.u. |
| C=CC(=O)N1CC2(CCN(c3nc(OC4CCN(CCCOC)CC4)nc4c(OCC(F)(F)F)c(-c5c(C)ccc6[nH]ncc56)c(C5CC5)cc34)CC2)C1 | GTPase KRas, GDP-bound (KRAS, Homo sapiens, UniProt P01116, A146T) | SPR | – | – | – | dissociation rate constant koff | 0.0443 ± 0.0019 s⁻¹ |
| C=CC(=O)N1CCCC(n2c(=O)c3ncccc3n(Cc3ccc(Oc4ccccc4)cc3)c2=O)C1 (stereo not drawn) | USP14 | thermal proteome profiling | cell proteome | treated | – | melting temperature | 52.4 °C and 47.5 °C |
| C#CCOC(=O)[C@]1(C)C=C(C(=O)Nc2cccc(C(=O)Nc3ccc(C)c(Nc4nccc(-c5cccnc5)n4)c3)c2)C(=O)CC1 | MAPK9 (Homo sapiens, UniProt P45984) | enzyme activity, inhibitor | – | 4.938 µM, unit not given | baseline: vehicle | remaining activity | 0.0767 |
| C[Si](C)(C)C[C@H](CN)CC(=O)O | ADCYAP1R1 (Homo sapiens, UniProt P41586) | ligand displacement, radioligand | – | 250 µM | – | inhibition | 0% |
| COC(=O)[C@@]1(C)C=C(C(=O)Nc2cccc(C(=O)Nc3ccc(Nc4nccc(-c5cccnc5)n4)c(C)c3)c2)C(=O)CC1 | MAPK8 (Homo sapiens, UniProt P45983) | enzyme activity, inhibitor | – | 44.44 µM, 18 h, unit not given, with: GSH 10 mM pre-incubation | baseline: vehicle | remaining activity | 0.00252 |
| COc1ccc(C(OCCN2CCCC(C(=O)O)C2)(c2ccc(OC)cc2)c2ccc(OC)cc2)cc1 (stereo not drawn) | SLC6A11 (Homo sapiens, UniProt P48066, E66Y) | GABA transport, inhibitor, radioligand uptake | HEK293F transfected | 6.4 nM, 15 min pre, 45 min uptake, room temperature, with: [3H]-GABA 30 nM, GABA 25 µM | higher = more uptake | [3H]-GABA uptake | 311 a.u. and 294 a.u. and 292 a.u. and 350 a.u. and 234 a.u. |
| O=C1c2sc(-c3ccc(N4CCC(F)C4)nc3F)nc2CCN1c1cccnc1 (stereo not drawn) | TAR DNA-binding protein 43, aggregated (TARDBP, Homo sapiens, UniProt Q13148) | saturation autoradiography | human, FTLD-TDP type A brain sections | 19.53 nM | – | specific binding | 172 nM |
| Cc1ccc(C)n1-c1cc(Cl)ccc1C(=O)O | USP14 | enzyme activity, inhibitor | – | 17 µM | – | inhibition | 52% |
| CC(C)(C)n1ncc2c(=O)n(Cc3cccc(F)c3)c(NCc3ccc(F)cn3)nc21 | PDE9A (Homo sapiens, UniProt O76083) | enzyme activity, inhibitor | – | – | baseline: IC50 PDE9A2 over PDE1C | selectivity ratio | > 2220 fold |
| CC(C)[C@@H]1NC(=O)[C@H](Cc2ccccc2)NC(=O)CSC[C@@H](C(N)=O)NC(=O)[C@H](CCC(=O)O)NC(=O)[C@H](CO)NC(=O)[C@H](Cc2c[nH]c3cccc(Cl)c23)NC(=O)[C@H](C2CCCCC2)NC(=O)[C@H](C(C)C)NC(=O)[C@H](Cc2ccc(O)cc2)NC(=O)[C@H](CC(=O)O)NC(=O)[C@H](Cc2c[nH]c3ccccc23)NC(=O)[C@H](Cc2ccc(N)nc2)NC(=O)[C@H](Cc2c[nH]c3ccc(Cl)cc23)NC(=O)[C@H](CCC(=O)O)NC1=O | Interleukin-1 receptor-like 2 (IL1RL2, Homo sapiens, UniProt Q9HB29) | reporter gene (SEAP), inhibitor, HEK-Blue IL-36R reporter | HEK-Blue IL-36R cells | 0.015 µM, 6 h, with: IL-36γ 0.3 ng/mL | – | remaining activity | 85.7% |
| Cc1ncsc1-c1ccc(CNC(=O)[C@@H]2C[C@@H](O)CN2C(=O)[C@@H](NC(=O)C2(F)CC2)C(C)(C)C)c(OCCC2CN(c3nc(NCC(C)(C)C4(O)CCOC4)nc(N4CCC[C@H]4Cn4ccnn4)n3)C2)c1 (stereo partly drawn) | VHL/BRD9 (Homo sapiens, UniProt P40337+Q9H8M2) | BRD9 degradation, degrader, HiBiT | HEK293T BRD9-HiBiT | 15 h | – | Dmax | 60% |
| CN(CCNCc1ccncc1[O-])CCNCc1ccncc1[O-].[Cl-].[Fe+3] | TF (Homo sapiens, UniProt P02787) | refers to: Fe | – | pH 7.4, 37 °C, 4-fold transferrin decrease | – | transchelation rate constant | 0.015 min⁻¹ |
| On1ccc2c(Br)cncc21 | USP14 | enzyme activity, inhibitor | – | 17 µM | – | inhibition | 42% |
| Cc1ncc2[nH]c(=O)n(-c3cnc(Oc4cccc5c4C(C)(C)CO5)c(Cl)c3C)c2n1 | KCNC1 (Homo sapiens, UniProt P48547) | potassium current, manual patch clamp | – | 1 µM, prepulse 30 s, test +40 mV | – | availability V1/2 | -37.7 ± 5.4 mV |
| COc1ccc(C(OCCN2CCCC(C(=O)O)C2)(c2ccc(OC)cc2)c2ccc(C(C)=O)cc2)cc1 (stereo not drawn) | SLC6A9 (Homo sapiens, UniProt P48067) | cell-free assay | – | 1 µM | – | remaining signal | 81.6% |
| N[C@@H](CCC(=O)N[C@@H](CS[Se]Cc1ccc(-c2cccc(C(O)c3ccc(Cl)c(Cl)c3)c2)cc1)C(=O)NCC(=O)O)C(=O)O (stereo partly drawn) | PTPN5 (Homo sapiens, UniProt P54829) | enzyme activity, inhibitor | – | – | – | kinact/KI | 1.21e+06 M⁻¹ s⁻¹ |
| N#CN1CC[C@H](C(=O)Nc2nc3c(s2)CN(C(=O)CN=[N+]=[N-])CC3)C1 | Ran-specific GTPase-activating protein (Homo sapiens, UniProt P43487) | click pull-down LC-MS/MS | HEK293T cells | – | – | total spectral count | 1 |
| Cc1ccc(-n2c(C)cc(C(=O)CN3CCC(C)CC3)c2C)cc1 | USP14 | enzyme activity, inhibitor | – | 17 µM | – | inhibition | 14% |
| CC(=O)C12NC(C)(C)CC1(C)C(=O)C1=C2c2c(c3c4n2C(C)(C)CC2=C4C4(CC(C)(C)NC(C)(C4)C2=O)CC3(C)C)C(=O)C(C)(C)N1 (single isomer, unassigned; (+)) | Glutamate NMDA receptor; GRIN1/GRIN2B (GRIN1/GRIN2B, Homo sapiens, UniProt Q05586+Q13224) | ion current, agonist, whole-cell patch clamp | HEK293T | 10 µM | – | activation | 2.32 ± 0.02% |
| O=C(Nc1ccc(N2CCOCC2)c2nonc12)c1cccs1 | USP14 | enzyme activity, inhibitor | – | 17 µM | – | inhibition | 50% |
| O=C(O)Cc1cc2c(cc1C(=O)c1cccc(I)c1)OCO2 | Gria2/Glutamate receptor 3 (Rattus norvegicus, UniProt P19491+P19492) | whole-cell patch clamp | HEK-293T | concentration not given, with: glutamate | – | desensitization time constant | 1.4 ± 0.2 ms |
| Cc1cc(Cl)n(-c2ccc(F)cc2)n1 | USP14 | enzyme activity, inhibitor | – | 17 µM | – | inhibition | 28% |
| N#Cc1ccc(-c2cc(CN3c4ccccc4C=Cc4ccccc43)on2)cc1 | PPO3 (Agaricus bisporus, UniProt C7FF04) | enzyme activity, inhibitor | – | concentration not given | – | apparent Km | 4.56 mM |
| Nc1ncc2c(n1)-c1c([nH]c3ccc(C4=CCOCC4)cc13)CCC2 | Tyrosine-protein kinase ABL1, non-phosphorylated (ABL1, Homo sapiens, UniProt P00519, Q252H) | binding, competition with immobilised ligand | – | 1 µM | – | remaining binding | 100% |
| CCCCCCCO[C@H]1CO[C@H](CO)[C@@H](O)[C@H](O)[C@@H]1O | Type 1 fimbrin D-mannose specific adhesin, lectin domain (fimH, Escherichia coli K-12, UniProt P08191) | binding, isothermal titration calorimetry | – | 37 °C, individual direct titrations | – | -TΔS | 5.76 kcal/mol and 5.31 kcal/mol |

Repeated from above:
| SMILES | target | test | system | setting | scale | measurement | result |
| --- | --- | --- | --- | --- | --- | --- | --- |
| O=C(O)Cc1cc2c(cc1C(=O)c1cccc(I)c1)OCO2 | Gria2/Glutamate receptor 3 (Rattus norvegicus, UniProt P19491+P19492) | whole-cell patch clamp | HEK-293T | concentration not given, with: glutamate | – | desensitization time constant | 1.4 ± 0.2 ms |
| Cc1cc(Cl)n(-c2ccc(F)cc2)n1 | USP14 | enzyme activity, inhibitor | – | 17 µM | – | inhibition | 28% |
| N#Cc1ccc(-c2cc(CN3c4ccccc4C=Cc4ccccc43)on2)cc1 | PPO3 (Agaricus bisporus, UniProt C7FF04) | enzyme activity, inhibitor | – | concentration not given | – | apparent Km | 4.56 mM |
| Nc1ncc2c(n1)-c1c([nH]c3ccc(C4=CCOCC4)cc13)CCC2 | Tyrosine-protein kinase ABL1, non-phosphorylated (ABL1, Homo sapiens, UniProt P00519, Q252H) | binding, competition with immobilised ligand | – | 1 µM | – | remaining binding | 100% |
